# Experimental data pooled from the literature.
# Lines come from different studies, so protocols differ. Several values in a cell are separate wells, animals, samples, runs or records. ± marks the error that the study gave.
SMILES,test,system,conditions,scale,measurement,value
CC(C)C[C@@H]1NC(=O)[C@H](C)NC(=O)[C@H]([C@@H](C)O)NC(=O)[C@H](CCC(=O)O)NC(=O)[C@@H]2CCCN2C(=O)[C@H](C)NC(=O)[C@H](CCCCN)NC(=O)[C@@H]2CSSC[C@@H](C(=O)N[C@@H](Cc3c[nH]cn3)C(N)=O)NC(=O)[C@H](C)NC(=O)[C@H](C)NC(=O)[C@H](C)NC(=O)[C@H](CSSC[C@H](N)C(=O)N[C@@H](CC(N)=O)C(=O)N2)NC1=O,HPLC-UV,bovine BBB model,"200 µM, 2 h",,Papp apical to basolateral,2.6 ± 0.3 ×10⁻⁶ cm/s
CSCC[C@H](NC(=O)CNC(=O)[C@H](CCCCN)NC(=O)[C@H](CC(C)C)NC(=O)[C@@H]1CCCN1C(=O)[C@H](CO)NC(=O)[C@H](Cc1c[nH]cn1)NC(=O)[C@H](Cc1c[nH]c2ccccc12)NC(=O)[C@H](CCCNC(=N)N)NC(=O)[C@H](CC(C)C)NC(=O)[C@H](CCCNC(=N)N)NC(=O)[C@H](Cc1c[nH]c2ccccc12)NC(=O)[C@H](CS)NC(=O)CCCCCNC(=O)CN1CCN(CC(=O)O)CCN(CC(=O)O)CCN(CC(=O)O)CC1)C(=O)O [copper-64 labelled],PET imaging,"BALB/c nude mice, tumor","intravenous, dose not given, 30 h, Huh-7 tumour-bearing",,tissue uptake,3.8 ± 0.29 %ID/g
CC[C@H](C)[C@H](NC(=O)[C@H](CCCCN)NC(=O)CNC(=O)[C@H](CC(C)C)NC(=O)[C@H](Cc1ccccc1)NC(=O)[C@H](CCCCN)NC(=O)[C@H](CO)NC(=O)[C@H](Cc1ccccc1)NC(=O)[C@H](Cc1c[nH]c2ccccc12)NC(=O)[C@H](CCC(N)=O)NC(=O)[C@@H](NC(=O)[C@H](Cc1ccccc1)NC(=O)CCCCCNC(=O)CN1CCN(CC(=O)O)CCN(CC(=O)O)CCN(CC(=O)O)CC1)C(C)C)C(=O)N[C@@H](CCC(=O)O)C(=O)N1CCC[C@H]1C(=O)N[C@@H](CC(=O)O)C(=O)N[C@H](C(=O)N[C@@H](CO)C(=O)N[C@@H](CCC(N)=O)C(=O)N[C@H](C(=O)N[C@@H](CCC(N)=O)C(=O)N[C@@H](CC(=O)O)C(=O)N1CCC[C@H]1C(=O)N[C@@H](CC(N)=O)C(=O)N[C@@H](CC(=O)O)C(=O)N[C@@H](CCC(N)=O)C(=O)N[C@@H](Cc1ccc(O)cc1)C(=O)N[C@@H](CCC(=O)O)C(=O)N1CCC[C@H]1C(=O)N[C@@H](Cc1ccccc1)C(=O)O)C(C)C)C(C)C [copper-64 labelled],dynamic PET,"mouse both sexes, CT26 tumour, untreated, tumour","intravenous, 100 µCi/mouse, 510 s",,SUVmean,0.74 SUV
CC[C@H](C)[C@H](NC(=O)[C@H](CCCNC(=N)N)NC(=O)[C@H](CCCCN)NC(=O)[C@H](Cc1ccc(O)cc1)NC(=O)[C@H](CC(=O)O)NC(=O)[C@H](C)NC(=O)CNC(=O)CCOCCOCCOCCNC(=O)CN1CCN(CC(=O)O)CCN(CC(=O)O)CCN(CC(=O)O)CC1)C(=O)N[C@H](C(=O)N[C@H](C(=O)N[C@@H](CCCCN)C(=O)N[C@H](C(=O)N[C@@H](CC(N)=O)C(N)=O)C(C)C)C(C)C)[C@@H](C)O [copper-64 labelled],ex vivo gamma counting,"male C57BL/6J mouse, B16-F10 tumour, B16-F10 tumour","intravenous, 1.85 MBq, 20 min",,tissue uptake,2.6 ± 0.225 %ID/g
CCCCCCCCCCCCCCCC(=O)N[C@@H](CCC(=O)NCCOCCOCCC(=O)NCCOCCOCCC(=O)NCCCC[C@H](NC(=O)[C@H](CC(=O)O)NC(=O)[C@H](CC(C)C)NC(=O)[C@H](Cc1ccc(O)cc1)NC(=O)[C@H](CCCCN)NC(=O)[C@H](CO)NC(=O)[C@H](Cc1ccc(O)cc1)NC(=O)[C@H](CC(=O)O)NC(=O)[C@H](CO)NC(=O)[C@@H](NC(=O)[C@H](Cc1ccccc1)NC(=O)[C@@H](NC(=O)CNC(=O)[C@H](CCC(N)=O)NC(=O)[C@@H](CO)NC(=O)[C@@H](N)Cc1c[nH]cn1)[C@@H](C)O)[C@@H](C)O)C(=O)N[C@@H](CCCNC(=N)N)C(=O)N[C@@H](CCCNC(=N)N)C(=O)N[C@@H](C)C(=O)N[C@@H](CCC(N)=O)C(=O)N[C@@H](CC(=O)O)C(=O)N[C@@H](Cc1ccccc1)C(=O)N[C@H](C(=O)N[C@@H](CCC(N)=O)C(=O)N[C@@H](Cc1c[nH]c2ccccc12)C(=O)N[C@@H](CC(C)C)C(=O)N[C@@H](CC(C)C)C(=O)N[C@@H](CC(N)=O)C(=O)N[C@H](C(=O)NCC(=O)NCC(=O)N1CCC[C@H]1C(=O)N[C@@H](CO)C(=O)N[C@@H](CO)C(=O)NCC(=O)N[C@@H](C)C(=O)N1CCC[C@H]1C(=O)N1CCC[C@H]1C(=O)N1CCC[C@H]1C(=O)N[C@@H](CO)C(N)=O)[C@@H](C)O)C(C)C)C(=O)O,,"rhesus monkey, plasma","intravenous, 15.3 µg/kg, single dose",,AUC(0-inf),290 ng·h/mL
O=C1NC2(CC2)COc2ncc(F)cc2[C@H]2COCCN2c2ccn3ncc1c3n2,,"Sprague-Dawley rat, female, kidneys","oral, 5 mg/kg/day, 4 weeks dosing, end of recovery",,organ-to-brain weight ratio,95.2 ± 9.04%
C=C/C=C/C[C@@H](C)[C@@H](O)[C@H]1C(=O)N[C@@H](CC)C(=O)N(C)CC(=O)N(C)[C@@H](CC(C)C)C(=O)N[C@@H](C(C)C)C(=O)N(C)[C@@H](CC(C)C)C(=O)N[C@@H](C)C(=O)N[C@H](C)C(=O)N(C)[C@@H](CC(C)C)C(=O)N(C)[C@@H](CC(C)C)C(=O)N(C)[C@@H](C(C)C)C(=O)N1C,,"Wistar Kyoto rat, male, plasma","ip, 0.5 mg/kg/day, day 18",,plasma urea level,4.8 ± 0.5 mmol/L
COc1ccc(CNc2ccc3c(c2)S(=O)(=O)C=C3)cc1,,"male C57BL/6 mice, blood","intraperitoneal, 20 mg/kg, day 8, group average",,mean corpuscular haemoglobin,15.2 pg
CC[C@H](C)[C@H](NC(=O)[C@H](Cc1ccc(O)cc1)NC(=O)[C@@H](NC(=O)[C@H](CCCNC(=N)N)NC(=O)[C@@H](N)CC(=O)O)C(C)C)C(=O)N[C@@H](Cc1c[nH]cn1)C(=O)N1CCC[C@H]1C(=O)O,,"Beagle dogs, plasma","subcutaneous, 10 mg/kg/day, day 0, median",,elimination rate constant,0.03 min⁻¹
CC(C)[C@H](NC(=O)[C@@H](NC(=O)[C@H](CCCNC(=N)N)NC(=O)[C@H](CCCNC(=N)N)NC(=O)[C@H](CCCNC(=N)N)NC(=O)[C@H](CCC(N)=O)NC(=O)[C@H](CCCNC(=N)N)NC(=O)[C@H](CCCNC(=N)N)NC(=O)[C@H](CCCCN)NC(=O)[C@H](CCCCN)NC(=O)[C@H](CCCNC(=N)N)NC(=O)CN)[C@@H](C)O)C(=O)N[C@H](C(=O)N[C@@H](CO)C(=O)N1CCC[C@H]1C(=O)O)[C@@H](C)O,,"ICR mouse, female, right kidney","intranasal, 20 mg/kg daily, 4 weeks",,kidney weight,0.211 ± 0.037 g
CSCC[C@H](N)C(=O)N[C@@H](C)C(=O)N[C@@H](CCCNC(=N)N)C(=O)N[C@@H](CCCNC(=N)N)C(=O)N[C@@H](CC(=O)O)C(=O)N[C@@H](CCCCN)C(=O)N[C@H](C(=O)N[C@@H](CC(=O)O)C(=O)N[C@@H](Cc1ccccc1)C(=O)N[C@@H](C)C(=O)N[C@@H](CCCNC(=N)N)C(=O)N[C@@H](CCCNC(=N)N)C(=O)N[C@@H](CCCNC(=N)N)C(=O)N[C@@H](CCCNC(=N)N)C(=O)NCCCCCC(=O)NCCCCC(NC(=O)CCCCCNC(=O)[C@H](CCCNC(=N)N)NC(=O)[C@H](CCCNC(=N)N)NC(=O)[C@H](CCCNC(=N)N)NC(=O)[C@H](CCCNC(=N)N)NC(=O)[C@H](C)NC(=O)[C@H](Cc1ccccc1)NC(=O)[C@H](CC(=O)O)NC(=O)[C@@H](NC(=O)[C@H](CCCCN)NC(=O)[C@H](CC(=O)O)NC(=O)[C@H](CCCNC(=N)N)NC(=O)[C@H](CCCNC(=N)N)NC(=O)[C@H](C)NC(=O)[C@@H](N)CCSC)[C@@H](C)O)C(=O)NCCCCC(NC(=O)C(CCCCNC(=O)CCCCCNC(=O)[C@H](CCCNC(=N)N)NC(=O)[C@H](CCCNC(=N)N)NC(=O)[C@H](CCCNC(=N)N)NC(=O)[C@H](CCCNC(=N)N)NC(=O)[C@H](C)NC(=O)[C@H](Cc1ccccc1)NC(=O)[C@H](CC(=O)O)NC(=O)[C@@H](NC(=O)[C@H](CCCCN)NC(=O)[C@H](CC(=O)O)NC(=O)[C@H](CCCNC(=N)N)NC(=O)[C@H](CCCNC(=N)N)NC(=O)[C@H](C)NC(=O)[C@@H](N)CCSC)[C@@H](C)O)NC(=O)CCCCCNC(=O)[C@H](CCCNC(=N)N)NC(=O)[C@H](CCCNC(=N)N)NC(=O)[C@H](CCCNC(=N)N)NC(=O)[C@H](CCCNC(=N)N)NC(=O)[C@H](C)NC(=O)[C@H](Cc1ccccc1)NC(=O)[C@H](CC(=O)O)NC(=O)[C@@H](NC(=O)[C@H](CCCCN)NC(=O)[C@H](CC(=O)O)NC(=O)[C@H](CCCNC(=N)N)NC(=O)[C@H](CCCNC(=N)N)NC(=O)[C@H](C)NC(=O)[C@@H](N)CCSC)[C@@H](C)O)C(N)=O)[C@@H](C)O (some centres unmarked),,"C57BL/6 mouse female, skull","dose not given, 6 h",baseline: total,mean tissue distribution,13.9%
COc1cnc2cccc(N3CCc4c(cc(Cn5ccnc5)cc4-c4cn(C)nc4C(F)(F)F)C3=O)c2c1,,"BALB/c nude mice, MV4-11 xenograft","intraperitoneal, 100 mg/kg, day 10",,body weight,23.6 g and 22.5 g and 23.4 g and 23.5 g
CCN(CCCCOc1ccc(CCC(=O)N2CCC(Cc3ccccc3)CC2)cc1OC)Cc1ccccc1,,"Sprague-Dawley rats, both sexes, urine","oral gavage, 25 mg/kg, 24 to 48 h",,excreted amount,243 ± 89.4 ng
CC(C)[C@@H]1NC(=O)CNC(=O)[C@H](CC(N)=O)NC(=O)[C@H](CCCNC(=N)N)NC(=O)[C@H](Cc2ccc(O)cc2)NC(=O)[C@H](C(C)C)NC(=O)[C@@H](NC(=O)[C@@H](NC(=O)[C@H](CC(N)=O)NC(=O)[C@H](Cc2c[nH]c3ccccc23)NC(=O)[C@H](C)NC(=O)[C@H](Cc2ccccc2)NC(=O)CNC(=O)[C@H](CCCCN)NC(=O)[C@H](Cc2ccccc2)NC(=O)[C@H](Cc2ccccc2)NC(=O)[C@H](CCCCN)NC(=O)OCC2c3ccccc3-c3ccccc32)C(C)C)CSSC[C@@H](C(=O)N[C@@H](Cc2c[nH]cn2)C(=O)N[C@@H](CCCNC(=N)N)C(=O)N[C@@H](CCCNC(=N)N)C(=O)N[C@@H](C)C(=O)N[C@@H](CC(N)=O)C(N)=O)NC(=O)[C@H](C(C)C)NC(=O)[C@H](CCCNC(=N)N)NC1=O,,"ICR mouse, blood","intramammary, 10 mg/kg, day 5, 3 d dosing",,AST/ALT ratio,0.58 ± 0.03
O=C(c1cc(Cc2n[nH]c(=O)c3ccccc23)ccc1F)N1CC(CNC2CC2)C1,,male Wistar Han rat,"oral, 60 mg/kg, day 28",,Cmax,4530 ng/mL
CC[C@H](C)[C@H](NC(=O)CNC(=O)[C@H](Cc1c[nH]cn1)NC(=O)[C@H](CC(C)C)NC(=O)CNC(=O)[C@H](CC(C)C)NC(=O)[C@H](CCCCN)NC(=O)[C@H](Cc1ccccc1)NC(=O)[C@H](CC(C)C)NC(=O)[C@H](CCCCN)NC(=O)CNC(=O)[C@H](Cc1c[nH]c2ccccc12)NC(=O)[C@H](Cc1ccccc1)NC(=O)CN)C(=O)NCC(=O)N[C@@H](CC(C)C)C(=O)N[C@@H](CC(C)C)C(=O)N[C@@H](Cc1c[nH]cn1)C(=O)N[C@@H](CC(C)C)C(=O)N[C@@H](Cc1c[nH]cn1)C(=O)N[C@@H](CC(C)C)C(N)=O,,"zebrafish embryos 28 hpf, E3 medium",1 h,,acute toxic concentration,5 µM
COC(=O)C[C@@H](NC(=O)[C@@H](Cc1ccc(-c2ccccc2)cc1)NC(=O)c1ccc(-c2ccc(OP(=O)(O)O)cc2)cc1)C(=O)OC,,PBS,"pH 7.4, before phosphatase treatment",,critical micelle concentration,189 µM

# A few entries again:
SMILES,test,system,conditions,scale,measurement,value
CC[C@H](C)[C@H](NC(=O)[C@H](CCCCN)NC(=O)CNC(=O)[C@H](CC(C)C)NC(=O)[C@H](Cc1ccccc1)NC(=O)[C@H](CCCCN)NC(=O)[C@H](CO)NC(=O)[C@H](Cc1ccccc1)NC(=O)[C@H](Cc1c[nH]c2ccccc12)NC(=O)[C@H](CCC(N)=O)NC(=O)[C@@H](NC(=O)[C@H](Cc1ccccc1)NC(=O)CCCCCNC(=O)CN1CCN(CC(=O)O)CCN(CC(=O)O)CCN(CC(=O)O)CC1)C(C)C)C(=O)N[C@@H](CCC(=O)O)C(=O)N1CCC[C@H]1C(=O)N[C@@H](CC(=O)O)C(=O)N[C@H](C(=O)N[C@@H](CO)C(=O)N[C@@H](CCC(N)=O)C(=O)N[C@H](C(=O)N[C@@H](CCC(N)=O)C(=O)N[C@@H](CC(=O)O)C(=O)N1CCC[C@H]1C(=O)N[C@@H](CC(N)=O)C(=O)N[C@@H](CC(=O)O)C(=O)N[C@@H](CCC(N)=O)C(=O)N[C@@H](Cc1ccc(O)cc1)C(=O)N[C@@H](CCC(=O)O)C(=O)N1CCC[C@H]1C(=O)N[C@@H](Cc1ccccc1)C(=O)O)C(C)C)C(C)C [copper-64 labelled],dynamic PET,"mouse both sexes, CT26 tumour, untreated, tumour","intravenous, 100 µCi/mouse, 510 s",,SUVmean,0.74 SUV
